Assay results from different studies.
Protocols differ between the studies behind these lines.
Route: oral

COc1cc(N2CCC(N3CCN(C)CC3)CC2)ccc1Nc1ncnc(Nc2ccccc2S(=O)(=O)C(C)C)n1
tmax (human, plasma; 200 mg, day 1): 2.29 h

CC(=O)c1cc(C(=O)N[C@@H](C)Cn2ccc(-c3ccc(C#N)c(Cl)c3)n2)[nH]n1
tmax (human, fasted; 300 mg 14C-darolutamide solution, median): 1.5 h

O=C(Nc1cnccc1Cl)N1CCN(Cc2ccc3c(c2)OC(F)(F)O3)CC1
tmax (human healthy young women, plasma; 100 mg once daily, day 10, multiple dose median): 1 h

N#Cc1ccc2c(c1)[C@H]1CCCN(C(=O)c3ccc4[nH]cnc4c3)[C@H]1C2
tmax (human, plasma; 20 mg once daily, after first dose, median): 0.667 h

O=C(COc1ccc(Cl)cc1)NC12CC(c3nnc([C@H]4C[C@@H](OC(F)(F)F)C4)o3)(C1)C2
tmax (healthy human both sexes, plasma; 100 mg once daily, day 1, median fasted): 23.8 h

Cc1ccc([C@@H]2O[C@H](CO)[C@@H](O)[C@H](O)[C@H]2O)cc1Cc1ccc(-c2ccc(F)cc2)s1
tmax (human, maintenance hemodialysis patients; 100 mg once daily, steady state, mean): 3.2 h

C[C@H](O)c1cc(C(=O)N[C@@H](C)Cn2ccc(-c3ccc(C#N)c(Cl)c3)n2)n[nH]1
tmax (human, fasted; 300 mg 14C-darolutamide solution, median): 3 h

Cc1cc(Nc2ccc(S(F)(F)(F)(F)F)cc2)n2nc(C(C)(F)F)nc2n1
tmax (LC-MS/MS; human vivax malaria patients, plasma; 800 mg, median): 10.1 h

CNC(=O)n1ccc2cc(Oc3ccnc(NC(=O)c4ccc(C5CCN(CCO)CC5)cc4)c3)c(OCCOC)cc21
tmax (healthy human, plasma; 35 mg, median, alone): 4 h

CN(C(=O)C(C)(C)c1cc(C(F)(F)F)cc(C(F)(F)F)c1)c1cnc(N2C[C@H]3COCCN3C[C@H]2CO)cc1-c1ccc(F)cc1[14CH3]
tmax (refers to: total radioactivity; human, whole blood; 120 mg): 2 h

O=C([O-])CCCCCCCNC(=O)c1ccccc1O.[Na+]
tmax (human; steady state): 0.7 h

CC(C)c1nc(N(C)S(C)(=O)=O)nc(-c2ccc(F)cc2)c1/C=C/[C@@H](O)C[C@@H](O)CC(=O)O
tmax (human, plasma; 10 mg, day 1, compound alone, DDI study): 4.5 h

CC[C@H](C)[C@H](NC(=O)[C@H](Cc1ccccc1)NC(=O)[C@H](CCC(=O)O)NC(=O)[C@H](CCCCNC(=O)COCCOCCNC(=O)COCCOCCNC(=O)CC[C@H](NC(=O)CCCCCCCCCCCCCCCCC(=O)O)C(=O)O)NC(=O)[C@H](C)NC(=O)[C@H](C)NC(=O)[C@H](CCC(N)=O)NC(=O)CNC(=O)[C@H](CCC(=O)O)NC(=O)[C@H](CC(C)C)NC(=O)[C@H](Cc1ccc(O)cc1)NC(=O)[C@H](CO)NC(=O)[C@H](CO)NC(=O)[C@@H](NC(=O)[C@H](CC(=O)O)NC(=O)[C@H](CO)NC(=O)[C@@H](NC(=O)[C@H](Cc1ccccc1)NC(=O)[C@@H](NC(=O)CNC(=O)[C@H](CCC(=O)O)NC(=O)C(C)(C)NC(=O)[C@@H](N)Cc1cnc[nH]1)[C@@H](C)O)[C@@H](C)O)C(C)C)C(=O)N[C@@H](C)C(=O)N[C@@H](Cc1c[nH]c2ccccc12)C(=O)N[C@@H](CC(C)C)C(=O)N[C@H](C(=O)N[C@@H](CCCNC(=N)N)C(=O)NCC(=O)N[C@@H](CCCNC(=N)N)C(=O)NCC(=O)O)C(C)C
tmax (human, plasma; 7 mg once daily, week 8, median): 1 h

Excerpt of the above:
CC[C@H](C)[C@H](NC(=O)[C@H](Cc1ccccc1)NC(=O)[C@H](CCC(=O)O)NC(=O)[C@H](CCCCNC(=O)COCCOCCNC(=O)COCCOCCNC(=O)CC[C@H](NC(=O)CCCCCCCCCCCCCCCCC(=O)O)C(=O)O)NC(=O)[C@H](C)NC(=O)[C@H](C)NC(=O)[C@H](CCC(N)=O)NC(=O)CNC(=O)[C@H](CCC(=O)O)NC(=O)[C@H](CC(C)C)NC(=O)[C@H](Cc1ccc(O)cc1)NC(=O)[C@H](CO)NC(=O)[C@H](CO)NC(=O)[C@@H](NC(=O)[C@H](CC(=O)O)NC(=O)[C@H](CO)NC(=O)[C@@H](NC(=O)[C@H](Cc1ccccc1)NC(=O)[C@@H](NC(=O)CNC(=O)[C@H](CCC(=O)O)NC(=O)C(C)(C)NC(=O)[C@@H](N)Cc1cnc[nH]1)[C@@H](C)O)[C@@H](C)O)C(C)C)C(=O)N[C@@H](C)C(=O)N[C@@H](Cc1c[nH]c2ccccc12)C(=O)N[C@@H](CC(C)C)C(=O)N[C@H](C(=O)N[C@@H](CCCNC(=N)N)C(=O)NCC(=O)N[C@@H](CCCNC(=N)N)C(=O)NCC(=O)O)C(C)C
tmax (human, plasma; 7 mg once daily, week 8, median): 1 h

O=C(COc1ccc(Cl)cc1)NC12CC(c3nnc([C@H]4C[C@@H](OC(F)(F)F)C4)o3)(C1)C2
tmax (healthy human both sexes, plasma; 100 mg once daily, day 1, median fasted): 23.8 h
